Published values of several laboratories.
Every numbered part comes from another study and shows a few of its results, in no order. Changes are numbered by the printed parent chain.

Study 1
Target: Ras GTPase-activating protein-binding protein 1, RRM domain (G3BP1, Homo sapiens, UniProt Q13283)
Sequence of UniProt Q13283 (whole entry, looked up): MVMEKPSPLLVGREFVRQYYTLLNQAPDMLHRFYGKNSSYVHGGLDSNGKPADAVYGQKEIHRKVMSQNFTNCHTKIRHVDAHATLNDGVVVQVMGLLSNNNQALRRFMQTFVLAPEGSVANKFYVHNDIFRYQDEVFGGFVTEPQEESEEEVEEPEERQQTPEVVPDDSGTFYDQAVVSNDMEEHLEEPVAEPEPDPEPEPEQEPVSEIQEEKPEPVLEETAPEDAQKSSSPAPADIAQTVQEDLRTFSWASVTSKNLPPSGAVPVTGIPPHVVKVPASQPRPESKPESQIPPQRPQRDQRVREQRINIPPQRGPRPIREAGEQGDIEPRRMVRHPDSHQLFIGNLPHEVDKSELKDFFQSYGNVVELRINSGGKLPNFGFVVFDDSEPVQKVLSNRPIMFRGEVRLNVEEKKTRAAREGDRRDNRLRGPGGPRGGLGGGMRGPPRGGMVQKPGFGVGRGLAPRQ
Method: RNA Bind-n-Seq
Molecule type: RNA
Medium: in vitro
Concentration: 1 µM
Notes: whole 134-nt RNA, ends assumed
With: 150 mM KCl
Reference: input library
Direction: higher = stronger binding
`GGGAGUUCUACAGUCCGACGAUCUGUCCCAGGGAACGCCGGUGCAGAUGUGCUUCUUGUGGGCUCAGAGGCCUUCGUGCUGCUGGACGGGCAGGAGCUGACGCCUCGCUGGACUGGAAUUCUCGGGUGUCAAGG` gave a log2 enrichment of -0.582.
The log2 enrichment of `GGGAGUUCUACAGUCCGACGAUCUCAAGUCCUGUGCUACACAUCGUAUGUACCGAAUCGGGUUUGGUUUGGUUUGGGGAAAGUAUUAUGUUACGCCGUUCGGAUCUGCACUUCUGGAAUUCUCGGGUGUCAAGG` is reported as -0.312.
For `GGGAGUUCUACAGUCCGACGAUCGUCCUGUGCUACACAUCGUAUGUACCGAAUCGGGUUUUUUGGUUUUUUGGUUUUUUGGAAAGUAUUAUGUUACGCCGUUCGGAUCUGCACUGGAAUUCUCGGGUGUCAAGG`, the log2 enrichment was -0.133.
For `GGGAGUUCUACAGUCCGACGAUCGCAGGAAGUAAAAACAAAUGGAAAUGCUUCGGAUAGUGGCAAGGGUGGGGGUUGCUAAGGAAAGGGUGGGAUGGGAGUGGGUAAAGAGUUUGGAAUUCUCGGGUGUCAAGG`, the log2 enrichment was 1.03.
`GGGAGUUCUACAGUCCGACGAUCGCAGGAAGUAAAAACUAAUGGAAAUGCUUCGGAUAGUGGCAGGGGUGGGGGUUGCUAAGGAAAGGGUGGGAUGGGAGUGGGUAAAGAGUUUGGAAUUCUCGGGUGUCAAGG` gave a log2 enrichment of 1.03.
`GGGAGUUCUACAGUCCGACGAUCGCAGGAAGUAAAAUCAAAUGGAAAUGCUUCGGAUAGUGGCAGGGGUGGGGGUUGCUAAGGAAAGGGUGGGAUGGGAGUGGGUAAAGAGUUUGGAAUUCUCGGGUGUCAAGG` gave a log2 enrichment of 1.17.
The log2 enrichment of `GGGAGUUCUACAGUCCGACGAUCUAACUUUAGAGGAGGAUCUGACGGAUAUGGCAGUGGACGUGGAUUUGGGGAUGGCUAUAAUGGGUAUGGAGGAGGACCUGGAGGUGGCAAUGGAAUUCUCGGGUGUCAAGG` is reported as -0.862.
The log2 enrichment of `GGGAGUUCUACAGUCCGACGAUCAAGUCCUGUGCUACACAUCGUAUGUACCGAAUCGGAAAAGGAAAAGGGAAAAGGGGAAAGUAUUAUGUUACGCCGUUCGGAUCUGCACUUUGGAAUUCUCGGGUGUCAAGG` is reported as -0.17.

Other studies, line by line
HLA class I histocompatibility antigen, A alpha chain allele A*25:01: HLA class I histocompatibility antigen, A alpha chain, allele A*25:01 (Homo sapiens, UniProt P04439)
CCND3: CCND3, cyclin fold, Cln2 fusion (human)
P1: viral docking peptide; KGVKRKLFAEDSS; partner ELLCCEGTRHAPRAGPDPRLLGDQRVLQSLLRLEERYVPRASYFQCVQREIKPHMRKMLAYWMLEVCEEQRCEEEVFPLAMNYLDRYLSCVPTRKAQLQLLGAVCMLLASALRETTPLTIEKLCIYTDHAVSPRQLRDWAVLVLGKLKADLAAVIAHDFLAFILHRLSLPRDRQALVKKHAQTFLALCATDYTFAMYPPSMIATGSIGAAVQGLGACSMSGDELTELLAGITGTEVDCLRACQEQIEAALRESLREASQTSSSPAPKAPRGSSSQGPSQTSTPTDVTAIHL
Under cross-linked residues, `FBL (Homo sapiens, UniProt P22087)` is recorded as “K318 to K178” (NOL7 (Homo sapiens, UniProt Q9UMY1); cross-linking MS; cell fractions; with: DSSO).
`KLKSVGKAY`: binding “inactive” (HLA class I histocompatibility antigen, A alpha chain allele A*25:01; peptide-MHC binding; peptide; concentration not given).
For `NOP14 (Homo sapiens, UniProt P78316)`, cross-linked residues read “K238 to K242” (BYSL (Homo sapiens, UniProt Q13895); cross-linking MS; cell fractions; with: DSSO).
For `P1 V3R`, “normalised enrichment score” read 0.16 (CCND3; yeast growth competition, sequencing; yeast; weak parent motif; reference: not given, higher = stronger binding).
`SF3A3 (Homo sapiens, UniProt Q12874)`: cross-linked residues “K92 to K188” (SF3A1 (Homo sapiens, UniProt Q15459); cross-linking MS; cell fractions; with: DSSO).
Under “normalised enrichment score”, `P1 F8D` is recorded as -0.168 (CCND3; yeast growth competition, sequencing; yeast; weak parent motif; reference: not given, higher = stronger binding).
`CC2D2B (Homo sapiens, UniProt Q6DHV5)` — result for cross-linked residues: “K209 to D31” (ACSBG1 (Homo sapiens, UniProt Q96GR2); cross-linking MS; cell fractions; with: DMTMM).
`KVADVDLAVPV`: binding “inactive” (HLA class I histocompatibility antigen, A alpha chain allele A*25:01; peptide-MHC binding; peptide; concentration not given).

A few entries again (study 1):
The log2 enrichment of `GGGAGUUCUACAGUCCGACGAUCUCAAGUCCUGUGCUACACAUCGUAUGUACCGAAUCGGGUUUGGUUUGGUUUGGGGAAAGUAUUAUGUUACGCCGUUCGGAUCUGCACUUCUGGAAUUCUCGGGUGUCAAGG` is reported as -0.312.
For `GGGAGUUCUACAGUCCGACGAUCGUCCUGUGCUACACAUCGUAUGUACCGAAUCGGGUUUUUUGGUUUUUUGGUUUUUUGGAAAGUAUUAUGUUACGCCGUUCGGAUCUGCACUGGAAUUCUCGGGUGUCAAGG`, the log2 enrichment was -0.133.
